Results from different studies.
Every numbered part comes from another study and shows a few of its results, in no order. Changes are numbered by the printed parent chain.

Set 1 — target: UBE2L3 UBC core domain (UniProt P68036); method: yeast two-hybrid; medium: yeast; notes: mostly zero background; baseline: not given; reading: higher = stronger interaction
Sequence of UniProt P68036 (whole entry, looked up): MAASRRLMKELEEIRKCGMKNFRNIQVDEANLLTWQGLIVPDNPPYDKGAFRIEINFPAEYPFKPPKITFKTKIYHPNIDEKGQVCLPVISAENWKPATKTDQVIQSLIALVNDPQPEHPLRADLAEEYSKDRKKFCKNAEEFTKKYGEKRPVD
B1: RNF186 RING domain (UniProt Q9NXI6); chain HSGSTECDLECLVCREPYSCPRLPKLLACQHAFCAICLKLLLCVQDNTWSITCPLCRKVTAVPGGLI
B2: TRIM41 RING domain (UniProt Q8WV44); chain PVQTLQEEAVCAICLDYFTDPVSIGCGHNFCRVCVTQLWGGEDEEDRDELDREEEEEDGEEE
B3: ARIH2 RING domain (UniProt O95376); chain HVPTSHPPHHCAVCMQFVRKENLLSLACQHQFCRSCWEQHCSVLVKDGVGVGVSCMAQDCPLRTPEDFVF
B4: TRIM11 RING domain (UniProt Q96F44); chain LSTNLQEEATCAICLDYFTDPVMTDCGHNFCRECIRRCWGQPEGPYACPECRELSPQRNLRP
Molecule | lacZ reporter activity
FAEQPSVKLCCQLCCSVFKDPVITTCGHTFCRRCALKSEKCPVDNVKLTVVVNNI (TRAF7 RING domain (UniProt Q6Q0C0)) | 0
B1 (RNF186 RING domain) | 0
LVKDFNPYITCYICKGYLIKPTTVTECLHTFCKTCIVQHFEDSNDCPRCGNQVHETNPLE (PCGF5 RING domain (UniProt Q86SE9)) | 0
B2 (TRIM41 RING domain) | 0
DDVLTKDAGECVICLEELLQGDTIARLPCLCIYHKSCIDSWFEVNRSCPEHPAD (ZNRF1 RING domain (UniProt Q8ND25)) | 0
EIKEYKARLTCPCCNTRKKDAVLTKCFHVFCFECVRGRYEARQRKCPKCNAAFGAHDFHR (RNF40 RING domain (UniProt O75150)) | 0
B3 (ARIH2 RING domain) | 0
B4 (TRIM11 RING domain) | 0

Set 2 — method: DHFR PCA, deep sequencing; medium: yeast; together with: (+)-ABA 0.39 µM; baseline: wild-type fitted maximum; reading: higher = stronger binding
Target: ABI1, truncated, D143A, DHFR fusion (Arabidopsis thaliana)
Notes: methotrexate growth selection, single substitutions
Parent: PYL1, truncated, DHFR fusion (Arabidopsis thaliana); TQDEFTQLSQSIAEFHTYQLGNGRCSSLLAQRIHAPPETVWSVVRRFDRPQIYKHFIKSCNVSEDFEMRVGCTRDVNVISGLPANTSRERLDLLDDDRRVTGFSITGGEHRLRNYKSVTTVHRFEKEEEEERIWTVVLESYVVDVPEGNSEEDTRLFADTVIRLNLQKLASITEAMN; partner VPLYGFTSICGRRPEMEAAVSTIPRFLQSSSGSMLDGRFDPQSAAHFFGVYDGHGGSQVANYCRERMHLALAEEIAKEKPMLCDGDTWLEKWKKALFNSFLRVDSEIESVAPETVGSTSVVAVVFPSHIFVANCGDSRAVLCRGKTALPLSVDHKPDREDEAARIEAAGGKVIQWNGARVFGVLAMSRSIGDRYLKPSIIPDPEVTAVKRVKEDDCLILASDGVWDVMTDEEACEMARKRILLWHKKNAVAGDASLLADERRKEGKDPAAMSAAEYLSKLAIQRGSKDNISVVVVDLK
Substitution | relative binding score [%]
E174K | 3.23
R98W | -9.25
V70P | 55.6
R49D | 2.01
R69E | 35.1
R99V | -15
S171Y | 17.1
A175Q | 44.7
N165T | 8.03
T173C | 67.1
H55W | 51.4
M176D | 16.8
S42K | 34.6
R132M | 42.7
D96G | 3.99

Set 3 — method: protein binding microarray; molecule type: double-stranded DNA, one strand shown; medium: in vitro; tested at: not given; baseline: not given; reading: higher = stronger binding
Target: Histone acetyltransferase KAT6A, winged helix 2, GST fusion (KAT6A, Homo sapiens, UniProt Q92794, residues 85-181)
Notes: 8-mer, flanks averaged, mean of 2 arrays, mostly near background
Residues (chain): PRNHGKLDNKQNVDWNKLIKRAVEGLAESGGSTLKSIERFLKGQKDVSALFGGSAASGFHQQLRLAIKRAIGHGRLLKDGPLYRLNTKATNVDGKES
Oligonucleotide | E-score
AACCCCGG | 0.059
CTGCTCTA | 0.108
GCGGGTCA | 0.172
CCCGATAC | 0.147
GAGACCAC | 0.102
GGGTTCAC | 0.108
ATGTTTTC | 0.00791
CGATAGAA | -0.161
ACTTAACA | 0.0855
AAGAAATC | 0.0086
AGTTCTAC | -0.183
CCCTTGCA | -0.123
GAGGGATA | -0.0806
CCGATTGC | 0.0492
CGAGTGGA | 0.0691
CTACTTTC | -0.0729
CATGGACA | -0.0423
GACCAGAC | -0.0252
GCGGATCC | 0.0386
GCTATACA | -0.0327
CCCTCCGA | 0.136
CATAGATA | -0.204

Set 4 — method: universal PBM; molecule type: double-stranded DNA, one strand shown; medium: in vitro; tested at: 600 nM; reading: higher = stronger binding
Target: Sal-like protein 4, full length isoform A (SALL4, Homo sapiens, UniProt Q9UJQ4, residues 1-1053)
Sequence of UniProt Q9UJQ4 (whole entry, looked up): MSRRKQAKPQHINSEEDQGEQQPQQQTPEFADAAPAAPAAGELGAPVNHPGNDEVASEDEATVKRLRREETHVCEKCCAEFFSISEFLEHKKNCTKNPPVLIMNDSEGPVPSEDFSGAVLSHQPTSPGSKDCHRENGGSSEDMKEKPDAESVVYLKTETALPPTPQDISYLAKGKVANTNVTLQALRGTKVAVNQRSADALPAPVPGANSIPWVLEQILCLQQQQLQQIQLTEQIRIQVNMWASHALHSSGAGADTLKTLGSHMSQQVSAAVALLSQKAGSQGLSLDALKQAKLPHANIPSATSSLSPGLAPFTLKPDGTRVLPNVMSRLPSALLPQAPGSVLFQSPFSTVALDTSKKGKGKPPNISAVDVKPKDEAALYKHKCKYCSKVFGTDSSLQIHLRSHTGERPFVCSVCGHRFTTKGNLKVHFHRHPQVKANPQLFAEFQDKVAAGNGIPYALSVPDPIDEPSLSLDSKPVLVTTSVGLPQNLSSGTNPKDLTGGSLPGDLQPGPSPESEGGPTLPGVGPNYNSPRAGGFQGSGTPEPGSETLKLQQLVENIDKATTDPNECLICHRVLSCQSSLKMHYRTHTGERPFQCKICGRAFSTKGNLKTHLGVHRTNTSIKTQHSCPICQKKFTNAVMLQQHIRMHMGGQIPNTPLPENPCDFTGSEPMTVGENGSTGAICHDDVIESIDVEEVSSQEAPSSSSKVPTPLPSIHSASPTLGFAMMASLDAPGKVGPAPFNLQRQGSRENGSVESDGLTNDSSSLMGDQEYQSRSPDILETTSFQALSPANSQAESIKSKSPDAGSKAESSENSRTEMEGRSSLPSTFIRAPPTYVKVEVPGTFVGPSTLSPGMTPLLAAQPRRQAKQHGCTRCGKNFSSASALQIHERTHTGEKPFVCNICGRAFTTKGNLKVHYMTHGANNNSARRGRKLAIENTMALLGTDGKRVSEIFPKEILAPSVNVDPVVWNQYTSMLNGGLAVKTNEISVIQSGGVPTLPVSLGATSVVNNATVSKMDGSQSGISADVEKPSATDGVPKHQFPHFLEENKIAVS
Notes: 8-mer, flanks averaged, mean of replicates
Oligonucleotide | E-score
CGGTGATA | 0.0888
ACGCATCA | 0.164
GGGACGTA | -0.0797
CCAAACAG | -0.0278
ACAAGACA | 0.151
AACGTCGC | -0.192
GATGTGAC | 0.0133
AACCGTGT | -0.0626
AGAAGTAG | 0.0443
CGCCCCTC | -0.437
CTAGACTA | 0.0677
AAGACATC | -0.028
CTGTCTAC | 0.0242
AATGCCAT | 0.148
CCGCGCAG | -0.342
AAGAGGTG | -0.0897
AGTGTTCA | 0.104
AATCTCCA | 0.0812
CAGTTTCG | -0.102
TCATTGAA | 0.181
CTACTTGC | -0.0495
CTGGATGC | -0.27

Set 5 — method: competition protein-binding microarray; molecule type: double-stranded DNA, one strand shown; medium: in vitro; tested at: 2 µM; together with: Cbf1 competitor, 0.05 µM; reading: higher = stronger binding; shared flanks, not repeated: … GTCTTGATTCGCTTGACGCTGCTG
Target: Phosphate system positive regulatory protein PHO4, full length, GST-tagged (PHO4, Saccharomyces cerevisiae, UniProt P07270, residues 1-312)
Notes: whole 60-bp probe, lowest competitor level
Target sequence (chain): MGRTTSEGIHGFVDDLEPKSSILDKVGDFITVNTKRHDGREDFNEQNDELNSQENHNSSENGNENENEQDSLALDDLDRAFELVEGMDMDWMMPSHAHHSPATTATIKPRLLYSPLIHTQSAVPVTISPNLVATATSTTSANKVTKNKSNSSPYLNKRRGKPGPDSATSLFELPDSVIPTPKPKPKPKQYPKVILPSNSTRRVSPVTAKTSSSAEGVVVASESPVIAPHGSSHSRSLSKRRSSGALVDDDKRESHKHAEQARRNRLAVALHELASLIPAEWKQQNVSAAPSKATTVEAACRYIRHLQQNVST
Oligonucleotide | fluorescence intensity [a.u.]
CTTTCCCGATCTTGGTCGGTGGGTGTAGCACATTTG | 4060
TGTTGCATACGTAAACATGTGTAGATTATTCTAAAT | 8790
TTTGTGCAGCACAATCACCTGTGGTTACTGGAGAAT | 5560
CTTCTGTAAATTTGTCACGGGACTTGACGCGCCCCG | 5570
CTTTCCCGATCTTGTCACCTCACTTTAGCACATTTG | 4120
GATCGATTCGGCTGTCATGCCAAGATGCGAGTATGT | 4830
TCAGGATCTGGCTGGCACATGATGCGGAAGCAGCGG | 8770
ACTGGTTACGATGATAACGAGCACTATGTTTCCCCC | 5370
AAATTACTAAGTTTTCACGTGAACTACCCCGTATGA | 9790
CTAACGAAGGTTTGGCAGGTGGGTGACAAGCCAAGT | 7250
TTGGCCGATTAAGAACCCGTGAGAACCACCAGAGAA | 4980
CATACCCAACCTTATCACGTGTTTTAAGATATTTGT | 18500
TATGTTTGCTACTGTCACACTGCCTTTCAATACGCT | 4070
CATACCCAACCTTGGTCCGTGGGTGAAGATATTTGT | 7170
AAATTACTAAGTTGCATTGTGGGTGACGCCGTATGA | 5130
CTTTCCCGATCTTGGAGCGTGGGTGTAGCACATTTG | 9190
CTAACGAAGGTTTGAGTCGTGGGTGACAAGCCAAGT | 6320
TGCGCAACAACTTGGGCTGTGGGTGTATGTCTAGAA | 4400
TTGTGTGTATGGTTCCACGTTTCTGCCTTGTGCTTT | 14200

Set 6 — target: CCNB1, cyclin fold, Cln2 fusion (human); method: yeast growth competition, sequencing; medium: yeast; notes: weak parent motif; baseline: not given; reading: higher = stronger binding
Parent: LLGL2 docking peptide (human); KSLKKSLRQSFRR
Substitution | normalised enrichment score
KSLKKSLRQSARR [F11A] | 0.405
KSLAKSLRQSFRR [K4A] | 0.273
ASLKKSLRQSFRR [K1A] | -0.11
KSLKKSLRQSFRA [R13A] | 0.457
KSLKKALRQSFRR [S6A] | -0.165
KSLKKSLAQSFRR [R8A] | 0.252

Some of these lines once more (set 4):
Oligonucleotide | E-score
AGAAGTAG | 0.0443
CGCCCCTC | -0.437
CTAGACTA | 0.0677
AAGACATC | -0.028
CTGTCTAC | 0.0242
AATGCCAT | 0.148
CCGCGCAG | -0.342
